# Experimental data collected from several papers.
# Every numbered part comes from another study and shows a few of its results, in no order. Changes are numbered by the printed parent chain.

# Set 1
# Target: CCND1, cyclin fold, Cln2 fusion (human)
# Method: yeast growth competition, sequencing
# Medium: yeast
# Notes: weak parent motif
# Baseline: not given
# Direction: higher = stronger binding
# Starting sequence: viral docking peptide; PTARRRLLHDLDT
Substitution,normalised enrichment score
PTARRRLLHDADT [L11A],-0.0437
PTARRRLLHDLAT [D12A],-0.685
PTARRRLLHALDT [D10A],-0.485
PTARRRLAHDLDT [L8A],-0.631
PTARAAAAHDLDT [R5A R6A L7A L8A],-0.125
PTARRRLFHDLDT [L8F],1.57
PTAARRLLHDLDT [R4A],-0.678
PTARRRLLFDLDT [H9F],3.25
PTARKRLFHDLDT [R5K L8F],0.0634
ATARRRLLHDLDT [P1A],0.0299

# Set 2
# Target: Protein C-ets-1 (ETS1, Homo sapiens, UniProt P14921, residues 1-441, Y397A, full length assumed)
# Method: protein-binding microarray
# Molecule type: double-stranded DNA, one strand shown
# Medium: in vitro
# Tested at: not given
# Notes: k-mer, scored over probes, only values ≥0.25
# Direction: higher = stronger binding
# Residues (chain): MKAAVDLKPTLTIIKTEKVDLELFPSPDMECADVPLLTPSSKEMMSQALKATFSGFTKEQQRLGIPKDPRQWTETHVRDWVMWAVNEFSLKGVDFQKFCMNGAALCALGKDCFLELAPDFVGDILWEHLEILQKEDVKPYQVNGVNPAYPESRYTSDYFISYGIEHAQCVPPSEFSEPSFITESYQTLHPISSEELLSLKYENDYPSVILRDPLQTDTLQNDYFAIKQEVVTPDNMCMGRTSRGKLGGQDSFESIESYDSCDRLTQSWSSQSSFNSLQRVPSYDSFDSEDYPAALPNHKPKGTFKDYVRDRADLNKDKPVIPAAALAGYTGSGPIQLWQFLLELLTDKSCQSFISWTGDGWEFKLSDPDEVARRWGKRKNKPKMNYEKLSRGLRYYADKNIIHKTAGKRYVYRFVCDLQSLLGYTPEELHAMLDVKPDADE
Strand,E-score
AAATTGCT,0.25
TGCCGACA,0.268
CAACGTTA,0.27
AACGCAAC,0.349
CGTCAAAA,0.38
CCCACCCC,0.326
CAAACAAC,0.255
TCCTGACA,0.278

# Single results of other studies
# Method: cross-linking MS
Molecule,partner,test system,conditions,endpoint,result
"DLD (Homo sapiens, UniProt P09622)","LANCL3 (Homo sapiens, UniProt Q6ZV70)",cell fractions,with: DSSO,cross-linked residues,K346 to K199
"HNRNPCL3 (Homo sapiens, UniProt B7ZW38)","HNRNPC (Homo sapiens, UniProt P07910)",,hits only,interaction screen,cross-linked
"ITSN1 (Homo sapiens, UniProt Q15811)","EPS15L1 (Homo sapiens, UniProt Q9UBC2)",,hits only,interaction screen,cross-linked
"HSPA1L (Homo sapiens, UniProt P34931)","SLC25A24 (Homo sapiens, UniProt Q6NUK1)",cell fractions,with: DMTMM,cross-linked residues,K552 to E420
"PSME1 (Homo sapiens, UniProt Q06323)","PSME2 (Homo sapiens, UniProt Q9UL46)",,hits only,interaction screen,cross-linked

# Repeated from above (set 1):
Substitution,normalised enrichment score
PTARAAAAHDLDT [R5A R6A L7A L8A],-0.125
PTARRRLFHDLDT [L8F],1.57
PTAARRLLHDLDT [R4A],-0.678
